Measured values collected from several papers.
Numbered parts are unrelated; each lists some results of a single study. “And” joins repeats or separate records; there may be more than shown. Positions count from the first letter of the parent shown.
Chain of UniProt Q01959 (whole entry, looked up): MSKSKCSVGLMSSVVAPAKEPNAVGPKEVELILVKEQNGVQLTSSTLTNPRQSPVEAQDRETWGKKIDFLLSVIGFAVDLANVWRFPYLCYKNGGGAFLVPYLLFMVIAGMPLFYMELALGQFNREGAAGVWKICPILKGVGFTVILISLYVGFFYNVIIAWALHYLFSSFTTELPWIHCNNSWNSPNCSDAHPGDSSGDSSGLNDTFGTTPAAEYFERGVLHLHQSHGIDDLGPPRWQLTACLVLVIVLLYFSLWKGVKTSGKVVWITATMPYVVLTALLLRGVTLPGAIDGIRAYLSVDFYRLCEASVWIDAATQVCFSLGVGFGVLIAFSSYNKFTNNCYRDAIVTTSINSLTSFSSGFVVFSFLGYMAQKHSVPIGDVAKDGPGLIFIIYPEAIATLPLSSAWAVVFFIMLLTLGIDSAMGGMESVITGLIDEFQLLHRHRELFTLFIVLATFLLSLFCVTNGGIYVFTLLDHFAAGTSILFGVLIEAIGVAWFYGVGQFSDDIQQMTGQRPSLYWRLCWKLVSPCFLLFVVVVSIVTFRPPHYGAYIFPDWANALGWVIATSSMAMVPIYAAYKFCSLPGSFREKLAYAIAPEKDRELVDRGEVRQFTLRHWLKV
Chain of UniProt P20309 (whole entry, looked up): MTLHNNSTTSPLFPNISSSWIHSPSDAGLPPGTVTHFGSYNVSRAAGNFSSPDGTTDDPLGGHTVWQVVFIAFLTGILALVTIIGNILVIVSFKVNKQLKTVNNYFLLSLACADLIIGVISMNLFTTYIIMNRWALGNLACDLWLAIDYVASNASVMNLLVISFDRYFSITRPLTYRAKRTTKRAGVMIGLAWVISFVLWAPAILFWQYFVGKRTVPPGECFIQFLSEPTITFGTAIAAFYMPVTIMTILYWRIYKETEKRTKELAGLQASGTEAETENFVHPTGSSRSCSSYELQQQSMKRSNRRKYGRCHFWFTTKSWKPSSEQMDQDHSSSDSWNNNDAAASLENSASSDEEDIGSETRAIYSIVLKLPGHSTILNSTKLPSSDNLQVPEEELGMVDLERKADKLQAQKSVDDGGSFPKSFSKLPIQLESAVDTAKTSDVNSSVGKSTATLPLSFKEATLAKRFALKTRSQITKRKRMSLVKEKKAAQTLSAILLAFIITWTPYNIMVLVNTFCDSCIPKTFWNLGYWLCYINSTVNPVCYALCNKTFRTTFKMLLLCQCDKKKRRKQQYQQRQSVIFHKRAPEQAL
Chain of UniProt P23975 (whole entry, looked up): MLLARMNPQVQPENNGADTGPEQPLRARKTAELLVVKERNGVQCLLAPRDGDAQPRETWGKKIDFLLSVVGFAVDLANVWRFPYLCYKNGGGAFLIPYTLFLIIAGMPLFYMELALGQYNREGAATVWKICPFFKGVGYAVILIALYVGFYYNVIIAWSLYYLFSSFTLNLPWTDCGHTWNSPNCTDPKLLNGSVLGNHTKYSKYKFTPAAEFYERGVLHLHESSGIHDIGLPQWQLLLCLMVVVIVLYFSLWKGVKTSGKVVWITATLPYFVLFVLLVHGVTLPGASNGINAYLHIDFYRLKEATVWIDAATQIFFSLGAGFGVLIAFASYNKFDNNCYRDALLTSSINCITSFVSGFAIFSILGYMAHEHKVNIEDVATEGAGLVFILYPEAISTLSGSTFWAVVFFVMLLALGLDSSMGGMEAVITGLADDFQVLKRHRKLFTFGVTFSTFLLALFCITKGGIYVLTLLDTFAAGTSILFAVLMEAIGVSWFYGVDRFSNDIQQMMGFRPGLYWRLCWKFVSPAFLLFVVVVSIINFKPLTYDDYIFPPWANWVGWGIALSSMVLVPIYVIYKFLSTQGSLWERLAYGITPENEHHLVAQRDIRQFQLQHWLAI
Chain of UniProt P35372 (whole entry, looked up): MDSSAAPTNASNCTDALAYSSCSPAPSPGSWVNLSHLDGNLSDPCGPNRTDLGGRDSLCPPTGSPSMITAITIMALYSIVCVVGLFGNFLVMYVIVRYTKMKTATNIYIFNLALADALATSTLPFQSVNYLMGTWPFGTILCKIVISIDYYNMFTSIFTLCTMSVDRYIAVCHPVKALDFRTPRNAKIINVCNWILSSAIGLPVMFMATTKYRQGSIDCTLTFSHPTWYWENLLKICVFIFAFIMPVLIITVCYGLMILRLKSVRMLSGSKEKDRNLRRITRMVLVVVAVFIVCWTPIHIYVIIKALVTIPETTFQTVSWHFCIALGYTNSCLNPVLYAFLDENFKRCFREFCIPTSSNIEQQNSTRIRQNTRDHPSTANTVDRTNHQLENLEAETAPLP
Chain of UniProt P41145 (whole entry, looked up): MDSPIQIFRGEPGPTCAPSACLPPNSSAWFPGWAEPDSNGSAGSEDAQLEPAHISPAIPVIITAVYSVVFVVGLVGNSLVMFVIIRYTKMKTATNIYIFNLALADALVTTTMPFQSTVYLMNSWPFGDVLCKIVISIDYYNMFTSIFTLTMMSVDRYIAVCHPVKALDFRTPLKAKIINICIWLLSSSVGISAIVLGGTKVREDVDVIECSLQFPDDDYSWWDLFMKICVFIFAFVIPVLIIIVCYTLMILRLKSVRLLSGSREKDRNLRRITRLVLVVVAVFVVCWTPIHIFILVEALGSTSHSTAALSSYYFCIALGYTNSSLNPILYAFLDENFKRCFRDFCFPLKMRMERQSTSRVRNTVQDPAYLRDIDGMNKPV

Sample 1
Target: HLA class I histocompatibility antigen, C alpha chain, allele C*04:01 (Homo sapiens, UniProt P10321)
Read-out: peptide-MHC binding
Form: peptide
Tested at: concentration not given
Sequence | binding
VMAPRTLIL | inactive
TVIDVNTGK | inactive
RRRPVTRPL | inactive
WYDALCVLL | active
MAAVRTTAL | inactive
GSYFSGFYK | inactive
TTDDSTSYY | inactive
YSLMSRYQF | inactive

Sample 2
Target: CCNB2, cyclin fold, Cln2 fusion (human)
Technique: yeast growth competition, sequencing
Sample: yeast
Notes: weak parent motif
Baseline: not given
Direction: higher = stronger binding
Starting sequence: viral docking peptide; KGVKRKLFAEDSS
Change | normalised enrichment score
KHVKRKLFAEDSS [G2H] | 0.603
KSVKRKLFAEDSS [G2S] | 0.866
KGVKRKLFAEMSS [D11M] | 0.296
KGVKRKLMAEDSS [F8M] | 0.103
KGVKRHLFAEDSS [K6H] | 0.696
KRVKRKLFAEDSS [G2R] | 0.966
KGVKRKLFEEDSS [A9E] | 1.3
KGVKVKLFAEDSS [R5V] | 0.374

Sample 3
Structure (SMILES): CNCc1ccccc1-c1csc([C@H](C)Nc2nc(C)nc3cc(OC)c(OC)cc23)c1
Read-out: binding
Technique: radioligand binding
Tested at: 10 µM
target | inhibition [%]
Kappa-type opioid receptor (OPRK1, Homo sapiens, UniProt P41145) | 64.4
Mu-type opioid receptor (OPRM1, Homo sapiens, UniProt P35372) | 67.3
Muscarinic acetylcholine receptor M3 (CHRM3, Homo sapiens, UniProt P20309) | 48
Sodium-dependent noradrenaline transporter (SLC6A2, Homo sapiens, UniProt P23975) | 69.3
D(1B) dopamine receptor (DRD5, Homo sapiens, UniProt P21918) | 36.6
Sodium-dependent serotonin transporter (SLC6A4, Homo sapiens, UniProt P31645) | 56.2
Sodium-dependent dopamine transporter (SLC6A3, Homo sapiens, UniProt Q01959) | 70.3

Mixed results
Compound | cell line | technique | tested at | measurement | value
CC(C)S(=O)(=O)c1cc2c(Nc3ccc4sc(C5CCCC5)nc4c3)ccnc2cc1OCCO | L929 RIPK3-/- reexpressing RIPK3 K51A | CCK-8 | 1.563 µM | survival | 93.6% and 95.9% and 96% and 84.7% and 97.2%
